# Measurements collected from several papers.
# Parts stem from different laboratories: compare values within a part only. Positions count from the first letter of the parent shown.

# Sample 1
# Target: RNA binding protein fox-1 homolog 2, RRM domain, GST-SBP tag (RBFOX2, Homo sapiens, UniProt O43251-10, residues 100-194)
# Technique: RNA Bind-n-Seq
# Molecule type: RNA
# Matrix: in vitro
# Concentration: 365 nM
# Setting: natural RNA segment, single round, ends assumed
# Baseline: no-protein control
# Direction: higher = stronger binding
# Shared flanks, not repeated: GGGAGUUCUACAGUCCGACGAUC … UGGAAUUCUCGGGUGCCAA
# Residues (chain): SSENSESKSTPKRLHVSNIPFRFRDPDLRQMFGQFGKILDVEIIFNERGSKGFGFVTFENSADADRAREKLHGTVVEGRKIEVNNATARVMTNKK
Strand,RBNS enrichment (R)
AGGACCAGAACCUCCUCCCCACCUGUGGCCUGGCCAAAACCCCCACUUGUGGUCUGAAUGUUCUCCUGAGGCCUCUGGCUAGAGUCUAGCCCCACCCAGGGGGAGGGGCU,0.966
GUGGGCCAGUACUAACUUAACUUGGUGUUCAGCAAGGGAUGCAGACGGAGAGCUCCCUUCUGCAGGACUAAGCAGAUGCGUGUCUUUCCCACCCGUGACUGUAAGAAUGC,3.88
CGCUCCUCACCAGUGGGUUUUCUUUAUUUAUGAAUUGAUCUGAUUUCUCAACCUCAUUUGAACUAAAAAACAAGACCAUGAACAUUAAAAGAUUGCAUUUACCUUUUCAG,0.52
GUUGUCAUUCCUUUGCAACAUUAAAAUACAUGCUGAACUCAUAUUUUUCCUUCCUUCACUGUUGUAGUAAAGAGACAUAUUUCAUGAAUGGCAUUGAUGCUAAUAAAUCC,0.578
CUAUAUUCAUCCAGGAUACUUGGAAGUGCUAAAAUAGGAAGGGAUUCGGCUUUCAACUUUGCUACCAUCUUCCCUGAAGCAGGAAAAUGAACAUGGACUUAAAUGUUCUU,0.301
CAUUGUUUUCCUACUUUUUUGUUGUUGGAUUAUGUAACUUUUCCUAAGUUCAGAAGUCUUAAGUGUGCAAGCGUUUAUGUGACCGUGCCAUUCCAGAGUGCAUCAGAACU,0.553
AUUUCCUGGGAAAUUUUGGUCAAAAGCCAGCUUCUUUUGCUGUCUUUAAUAAGAAAAACUUGAAGUUUAGGAGCUUAAAAGACUUAGCCUGAGGCAGAAGGAGGUGAGCA,2.97
UGCAGCCGGCACACCCAGUGGUGGAGGGCCGGCGCUGCCACUCACGGUGGGUGGCCGUGGGCCACCUUCCCUGCAAUGGGUGCACACGCGGCUCCCAUCCAGCCCUCUCA,0.333
UCCCCCUGUCCCCUCAGCUCCAGACGUAGGGGAGGGGUUGCCACAGGCCUCCCUGUUUGAAGCCUGCCCUUGUCUGAGAUGCUGGUAAUGGCCAUGGUACCCCCUUCUGG,0.342
CCCAAGGAUAAUUAAUUAUCCCACACAGUGAGAGCAGUGGCUUGCUUAGCUGACUGUGCCCACGCCAGUCUUCAGGCACUGCAAGCAGCCGCUGGUCCCUGCUAUCCGAA,0.429
GAGGAGGGUGAACAAGGUGAUCUCAGAGAUCACUACUGCUCUUGGAGUUCCUUCUCCUAAAGCUAAGGCCAGCCUCCAUCACAAAUGCCCAUAAAAUCUGGCUCGUCUUU,0.356
UACUCAGGAGGCUGAGGCAGGAGAAUUGCUUGAACCCAGGAGGCGGAGGUUGCAGUGAGCCAGGAUUGUGCCAUUGCACUCCAGCCUGGGCAACAAGAACAAAACUCCAU,0.321

# Sample 2
# Target: Prothrombin, mature alpha-thrombin (F2, Homo sapiens, UniProt P00734)
# Technique: aptamer microarray, sandwich
# Molecule type: DNA with 2'F-ANA
# Matrix: in vitro
# Concentration: 200 nM
# Setting: whole 15-mer aptamer, many near background
# Together with: Cy3 exosite-II aptamer, 400 nM
# Direction: higher = stronger binding
# Strand: GGTTGGTGTGGTTGG
Modification,mean fluorescence intensity
2'F-ANA at 3 8 11 12 13 14,641 a.u.
2'F-ANA at 1 7 9 11 13,131 a.u.
2'F-ANA at 3 4 8 10 14,235 a.u.
2'F-ANA at 4 7 8 10 11 12 15,108 a.u.
2'F-ANA at 2 6 8 11 12 14,149 a.u.
2'F-ANA at 2 3 5 6 7 8 9 10 11 14 15,52.1 a.u.
2'F-ANA at 1 3 6 10 11 13 14,58.9 a.u.
2'F-ANA at 5 6 10 13 14 15,52.2 a.u.
2'F-ANA at 2 3 6 9 11 12 15,852 a.u.
2'F-ANA at 2 4 5 8 12 14,46.9 a.u.
2'F-ANA at 1 2 6 7 8 9 10 14,52 a.u.
2'F-ANA at 1 3 5 6 7 10 11 12 14,48.4 a.u.
2'F-ANA at 1 2 3 6 10 11 14 15,109 a.u.
2'F-ANA at 4 5 7 8 10 12 14 15,46 a.u.
2'F-ANA at 1 3 4 5 6 8 9 10 11 15,47 a.u.
2'F-ANA at 3 5 7 12 13 14 15,65.3 a.u.
2'F-ANA at 1 4 5 6 7 8 9 11 13 14,48.6 a.u.
2'F-ANA at 1 4 7 8 11 12,266 a.u.
2'F-ANA at 2 3 7 10 12 14,329 a.u.
2'F-ANA at 1 7 8 9 10 11,56.4 a.u.
2'F-ANA at 1 2 3 4 6 7 9 12 15,266 a.u.
2'F-ANA at 2 3 6 7 13,488 a.u.
2'F-ANA at 1 2 4 5 6 7 8 13,50 a.u.
2'F-ANA at 2 4 9 10 12 14 15,63.4 a.u.
2'F-ANA at 2 4 7 12 13 14 15,189 a.u.

# Sample 3
# Target: Sal-like protein 4, full length isoform B (SALL4, Homo sapiens, UniProt Q9UJQ4-2, residues 1-616)
# Technique: universal PBM
# Molecule type: double-stranded DNA, one strand shown
# Matrix: in vitro
# Concentration: not given
# Setting: 8-mer, flanks averaged, mean of replicates
# Direction: higher = stronger binding
# Target sequence (chain): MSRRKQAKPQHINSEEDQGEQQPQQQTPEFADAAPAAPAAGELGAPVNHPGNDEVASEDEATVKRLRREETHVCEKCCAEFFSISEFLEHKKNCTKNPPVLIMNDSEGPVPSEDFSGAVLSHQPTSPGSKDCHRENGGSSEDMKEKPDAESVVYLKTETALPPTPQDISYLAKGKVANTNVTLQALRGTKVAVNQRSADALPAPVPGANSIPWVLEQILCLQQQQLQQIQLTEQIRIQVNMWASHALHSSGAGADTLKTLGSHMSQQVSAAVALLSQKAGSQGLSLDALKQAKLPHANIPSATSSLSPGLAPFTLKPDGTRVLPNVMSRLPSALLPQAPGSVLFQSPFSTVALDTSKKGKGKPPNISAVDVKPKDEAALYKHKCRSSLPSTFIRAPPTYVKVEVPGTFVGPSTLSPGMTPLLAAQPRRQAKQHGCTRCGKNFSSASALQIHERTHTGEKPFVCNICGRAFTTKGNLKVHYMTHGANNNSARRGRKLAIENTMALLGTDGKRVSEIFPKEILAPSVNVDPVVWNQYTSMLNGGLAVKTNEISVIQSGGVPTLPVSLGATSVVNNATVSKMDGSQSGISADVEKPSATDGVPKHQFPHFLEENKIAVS
Strand,E-score
CCAAGCAG,-0.177
CGTTAGGA,0.0142
CATTCGAA,0.109
ATAGGATG,0.191
CAGTTCGG,-0.148
CGACCTCG,-0.194
AGGGGACG,-0.262
AATGGGCA,0.0511
CCGTTAAA,0.0141
AATCTTGC,0.146
AGAATCCA,0.0125
CCACCGGC,-0.396
CGCTGACG,-0.171
AAAGACGG,-0.0901
CGCATAAG,0.18
AACGGTGG,-0.0586
AGTACAGG,0.00612

# Sample 4
# Target: Histone acetyltransferase KAT6A, winged helix 2, GST fusion (KAT6A, Homo sapiens, UniProt Q92794, residues 85-181)
# Technique: protein binding microarray
# Molecule type: double-stranded DNA, one strand shown
# Matrix: in vitro
# Concentration: not given
# Setting: 8-mer, flanks averaged, mean of 2 arrays, mostly near background
# Baseline: not given
# Direction: higher = stronger binding
# Construct (chain): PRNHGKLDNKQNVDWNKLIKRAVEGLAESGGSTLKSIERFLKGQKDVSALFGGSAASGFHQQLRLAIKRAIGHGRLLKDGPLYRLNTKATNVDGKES
Strand,E-score
CTCTTTTA,-0.073
CATGGAGG,-0.0935
GACTACGA,-0.105
ATGCAGAC,0.0984
CTTTGGGC,0.139
TGTCGAAA,-0.0206
CAACTAAC,0.00566
CCTCCGCA,-0.0438
CCCCTGCG,0.22
AAACTCCA,0.0912
AAGGCGCA,0.0902
GGAGTCAC,-0.126
ACAGAATG,-0.0401
TCTCAGAA,0.0811
AGGGGTAT,-0.191
ATTTGTCG,0.0845
CAGTGATA,-0.0282
CTCCGGCA,0.181
CACCTTGA,-0.0334
CAGGAATA,-0.119
AGTCCGGG,0.148
GCCTGGAC,-0.0324
AGTCCCCA,-0.13
CGCCTTTC,0.105
CATACCGA,-0.063

# Sample 5
# Target: CCND3, cyclin fold, Cln2 fusion (human)
# Technique: yeast growth competition, sequencing
# Matrix: yeast
# Setting: weak parent motif
# Baseline: not given
# Direction: higher = stronger binding
# Starting sequence: MICAL3 docking peptide (human); LQLRRQLSFSEDS; partner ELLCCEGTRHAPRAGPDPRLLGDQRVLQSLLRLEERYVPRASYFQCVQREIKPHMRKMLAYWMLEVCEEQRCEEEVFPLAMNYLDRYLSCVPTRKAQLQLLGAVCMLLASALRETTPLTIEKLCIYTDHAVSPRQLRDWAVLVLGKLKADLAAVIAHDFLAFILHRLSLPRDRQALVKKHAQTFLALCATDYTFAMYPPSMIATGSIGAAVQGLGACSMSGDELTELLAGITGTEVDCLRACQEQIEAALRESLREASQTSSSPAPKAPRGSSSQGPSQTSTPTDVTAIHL
Substitution,normalised enrichment score
LQLRRQLSFQEDS [S10Q],-0.0192
LQLKRQLSFSEDS [R4K],-0.0584
LQLNRQLSFSEDS [R4N],-0.0846
LQLRDQLSFSEDS [R5D],-0.0082
LQLRRQLSSSEDS [F9S],-0.316
LQLYRQLSFSEDS [R4Y],0.368
LQLRRQLSFSYDS [E11Y],0.18
LQLRRYLSFSEDS [Q6Y],0.177
LQLRRWLSFSEDS [Q6W],-0.179
LQLIRQLSFSEDS [R4I],0.301
LQLRRQESFSEDS [L7E],0.312
LQLRRQPSFSEDS [L7P],0.15
LQLRRQHSFSEDS [L7H],0.446
LQLRRQLSFGEDS [S10G],0.2
LQLRRQLSFSECS [D12C],-0.0141
LQLRRILSFSEDS [Q6I],0.358
LQLRRQLSFSTDS [E11T],0.235
LQLRRQLSFSETS [D12T],0.135
LQLRRQLCFSEDS [S8C],0.178
LQLERQLSFSEDS [R4E],-0.199
LHLRRQLSFSEDS [Q2H],0.18
LQLRRVLSFSEDS [Q6V],0.213

# For quick reference, copied from above (sample 5):
Substitution,normalised enrichment score
LQLKRQLSFSEDS [R4K],-0.0584
LQLNRQLSFSEDS [R4N],-0.0846
LQLRDQLSFSEDS [R5D],-0.0082
LQLRRQLSSSEDS [F9S],-0.316
LQLYRQLSFSEDS [R4Y],0.368
LQLRRQLSFSYDS [E11Y],0.18
LQLRRYLSFSEDS [Q6Y],0.177
LQLRRWLSFSEDS [Q6W],-0.179
LQLIRQLSFSEDS [R4I],0.301
LQLRRQESFSEDS [L7E],0.312
LQLRRQPSFSEDS [L7P],0.15
LQLRRQHSFSEDS [L7H],0.446
LQLRRQLSFGEDS [S10G],0.2
LQLRRQLSFSECS [D12C],-0.0141
LQLRRILSFSEDS [Q6I],0.358
LQLRRQLSFSTDS [E11T],0.235
LQLRRQLSFSETS [D12T],0.135
